Results collected from several papers.
Every numbered part comes from another study and shows a few of its results, in no order.
Chain of UniProt Q9Y5S2 (whole entry, looked up): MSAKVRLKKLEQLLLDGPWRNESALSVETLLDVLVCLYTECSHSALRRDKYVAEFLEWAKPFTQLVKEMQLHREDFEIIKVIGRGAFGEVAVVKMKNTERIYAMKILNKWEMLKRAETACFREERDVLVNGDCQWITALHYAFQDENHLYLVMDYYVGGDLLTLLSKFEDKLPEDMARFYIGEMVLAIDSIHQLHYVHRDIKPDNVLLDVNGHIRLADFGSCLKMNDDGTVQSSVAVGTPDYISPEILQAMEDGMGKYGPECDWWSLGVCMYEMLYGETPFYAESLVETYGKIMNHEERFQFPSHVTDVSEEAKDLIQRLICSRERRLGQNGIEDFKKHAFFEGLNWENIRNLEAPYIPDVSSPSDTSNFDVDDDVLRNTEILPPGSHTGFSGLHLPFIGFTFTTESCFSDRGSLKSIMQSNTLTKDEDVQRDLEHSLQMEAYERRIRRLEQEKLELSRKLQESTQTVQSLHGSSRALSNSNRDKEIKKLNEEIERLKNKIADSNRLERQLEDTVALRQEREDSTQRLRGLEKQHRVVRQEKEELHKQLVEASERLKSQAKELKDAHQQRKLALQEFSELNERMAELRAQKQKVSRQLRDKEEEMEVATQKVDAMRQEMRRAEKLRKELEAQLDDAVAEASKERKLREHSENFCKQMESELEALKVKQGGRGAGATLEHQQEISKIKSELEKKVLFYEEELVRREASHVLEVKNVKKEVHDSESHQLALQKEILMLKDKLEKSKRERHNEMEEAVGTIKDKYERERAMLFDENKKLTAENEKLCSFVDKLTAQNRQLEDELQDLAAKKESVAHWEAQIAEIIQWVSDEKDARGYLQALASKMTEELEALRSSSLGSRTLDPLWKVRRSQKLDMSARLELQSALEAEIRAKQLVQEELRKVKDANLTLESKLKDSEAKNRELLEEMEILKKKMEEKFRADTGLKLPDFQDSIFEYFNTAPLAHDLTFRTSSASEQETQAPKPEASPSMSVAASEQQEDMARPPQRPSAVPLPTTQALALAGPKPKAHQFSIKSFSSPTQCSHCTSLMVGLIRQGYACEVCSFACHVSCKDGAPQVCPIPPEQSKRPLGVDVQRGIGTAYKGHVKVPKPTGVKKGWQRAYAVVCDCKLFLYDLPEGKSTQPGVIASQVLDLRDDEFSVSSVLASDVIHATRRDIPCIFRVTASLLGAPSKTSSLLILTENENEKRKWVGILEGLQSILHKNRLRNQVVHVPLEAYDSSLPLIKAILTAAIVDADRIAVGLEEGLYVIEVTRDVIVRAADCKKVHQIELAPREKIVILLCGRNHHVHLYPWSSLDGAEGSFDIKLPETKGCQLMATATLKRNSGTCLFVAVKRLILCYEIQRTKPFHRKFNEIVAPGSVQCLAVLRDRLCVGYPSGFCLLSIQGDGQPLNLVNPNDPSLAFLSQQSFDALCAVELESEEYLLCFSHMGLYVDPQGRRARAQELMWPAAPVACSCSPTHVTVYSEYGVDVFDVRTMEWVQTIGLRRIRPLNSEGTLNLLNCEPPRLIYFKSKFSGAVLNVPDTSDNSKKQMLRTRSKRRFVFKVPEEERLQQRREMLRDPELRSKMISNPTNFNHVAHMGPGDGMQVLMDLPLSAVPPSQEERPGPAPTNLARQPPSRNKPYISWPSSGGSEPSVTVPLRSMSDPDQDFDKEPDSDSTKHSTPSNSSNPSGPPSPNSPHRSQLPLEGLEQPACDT
Chain of UniProt P42336 (whole entry, unmodified, looked up): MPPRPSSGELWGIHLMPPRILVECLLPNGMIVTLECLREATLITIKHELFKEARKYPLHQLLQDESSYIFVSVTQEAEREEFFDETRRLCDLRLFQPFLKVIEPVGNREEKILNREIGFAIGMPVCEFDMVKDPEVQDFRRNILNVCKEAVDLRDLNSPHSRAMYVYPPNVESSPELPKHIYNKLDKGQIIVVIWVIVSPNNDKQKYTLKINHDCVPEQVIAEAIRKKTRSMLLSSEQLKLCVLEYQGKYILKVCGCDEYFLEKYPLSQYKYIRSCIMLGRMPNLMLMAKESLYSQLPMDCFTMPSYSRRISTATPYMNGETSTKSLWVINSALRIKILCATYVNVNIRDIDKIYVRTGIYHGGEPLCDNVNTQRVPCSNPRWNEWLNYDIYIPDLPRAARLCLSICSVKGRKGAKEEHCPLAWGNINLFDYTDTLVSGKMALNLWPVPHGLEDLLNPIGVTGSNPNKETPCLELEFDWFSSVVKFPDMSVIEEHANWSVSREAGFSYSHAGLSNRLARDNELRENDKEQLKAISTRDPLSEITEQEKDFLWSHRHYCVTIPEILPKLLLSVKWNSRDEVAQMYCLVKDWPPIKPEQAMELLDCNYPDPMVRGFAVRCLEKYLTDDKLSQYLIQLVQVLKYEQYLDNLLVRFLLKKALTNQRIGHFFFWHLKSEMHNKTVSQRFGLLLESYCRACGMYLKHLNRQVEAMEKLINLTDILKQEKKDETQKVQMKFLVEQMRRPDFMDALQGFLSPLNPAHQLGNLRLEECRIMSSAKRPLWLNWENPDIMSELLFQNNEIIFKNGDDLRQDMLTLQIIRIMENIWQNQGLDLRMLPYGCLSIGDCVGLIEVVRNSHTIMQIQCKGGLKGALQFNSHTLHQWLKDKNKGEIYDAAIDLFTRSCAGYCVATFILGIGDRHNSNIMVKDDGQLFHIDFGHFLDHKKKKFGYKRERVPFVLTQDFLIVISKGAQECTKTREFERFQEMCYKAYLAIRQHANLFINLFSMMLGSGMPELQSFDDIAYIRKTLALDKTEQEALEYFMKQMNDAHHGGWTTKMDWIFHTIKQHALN
Chain of UniProt Q9BWU1 (whole entry, looked up): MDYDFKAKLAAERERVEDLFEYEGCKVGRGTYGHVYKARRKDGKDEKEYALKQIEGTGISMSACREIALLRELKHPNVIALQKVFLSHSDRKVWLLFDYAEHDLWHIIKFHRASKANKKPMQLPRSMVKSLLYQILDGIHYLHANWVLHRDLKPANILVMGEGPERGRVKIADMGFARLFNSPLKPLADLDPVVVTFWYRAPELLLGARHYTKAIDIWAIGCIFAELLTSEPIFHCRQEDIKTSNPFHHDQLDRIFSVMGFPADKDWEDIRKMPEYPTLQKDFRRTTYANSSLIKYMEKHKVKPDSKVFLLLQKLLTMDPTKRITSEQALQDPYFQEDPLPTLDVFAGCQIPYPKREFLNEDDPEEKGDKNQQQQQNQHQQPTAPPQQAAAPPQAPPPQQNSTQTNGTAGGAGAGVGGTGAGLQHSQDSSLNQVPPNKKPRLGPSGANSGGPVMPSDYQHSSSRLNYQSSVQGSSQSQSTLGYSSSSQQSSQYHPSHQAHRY
Chain of UniProt P29322 (whole entry, looked up): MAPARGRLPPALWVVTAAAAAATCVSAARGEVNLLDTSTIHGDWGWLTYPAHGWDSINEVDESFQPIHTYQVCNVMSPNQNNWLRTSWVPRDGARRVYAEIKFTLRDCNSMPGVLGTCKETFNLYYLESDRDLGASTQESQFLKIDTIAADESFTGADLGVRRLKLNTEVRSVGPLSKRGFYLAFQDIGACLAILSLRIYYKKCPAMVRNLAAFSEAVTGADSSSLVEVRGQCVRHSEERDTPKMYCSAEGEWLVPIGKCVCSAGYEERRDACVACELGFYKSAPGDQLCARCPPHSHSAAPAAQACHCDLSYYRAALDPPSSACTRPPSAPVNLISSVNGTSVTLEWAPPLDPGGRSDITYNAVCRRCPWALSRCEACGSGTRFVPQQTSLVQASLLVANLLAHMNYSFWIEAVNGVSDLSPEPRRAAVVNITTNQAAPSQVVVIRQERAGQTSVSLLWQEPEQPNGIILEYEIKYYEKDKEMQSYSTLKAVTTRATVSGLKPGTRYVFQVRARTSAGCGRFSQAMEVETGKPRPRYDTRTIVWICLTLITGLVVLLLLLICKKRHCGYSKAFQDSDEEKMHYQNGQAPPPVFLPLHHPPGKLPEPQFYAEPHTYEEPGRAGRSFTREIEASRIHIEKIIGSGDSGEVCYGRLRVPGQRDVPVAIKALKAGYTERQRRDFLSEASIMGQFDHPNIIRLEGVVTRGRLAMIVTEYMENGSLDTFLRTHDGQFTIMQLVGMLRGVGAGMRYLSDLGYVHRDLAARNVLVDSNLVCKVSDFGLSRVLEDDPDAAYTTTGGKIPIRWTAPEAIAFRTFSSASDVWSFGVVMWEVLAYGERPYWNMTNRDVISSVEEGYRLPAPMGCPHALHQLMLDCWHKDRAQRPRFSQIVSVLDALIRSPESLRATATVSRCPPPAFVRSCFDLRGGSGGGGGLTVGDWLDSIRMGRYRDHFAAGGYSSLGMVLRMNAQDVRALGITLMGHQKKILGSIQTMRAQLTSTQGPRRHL

Series 1
Target: Centromere-binding protein 1, full length, N-terminal tag (CBF1, Saccharomyces cerevisiae, UniProt P17106, residues 1-351)
Chain of UniProt P17106 (whole entry, looked up): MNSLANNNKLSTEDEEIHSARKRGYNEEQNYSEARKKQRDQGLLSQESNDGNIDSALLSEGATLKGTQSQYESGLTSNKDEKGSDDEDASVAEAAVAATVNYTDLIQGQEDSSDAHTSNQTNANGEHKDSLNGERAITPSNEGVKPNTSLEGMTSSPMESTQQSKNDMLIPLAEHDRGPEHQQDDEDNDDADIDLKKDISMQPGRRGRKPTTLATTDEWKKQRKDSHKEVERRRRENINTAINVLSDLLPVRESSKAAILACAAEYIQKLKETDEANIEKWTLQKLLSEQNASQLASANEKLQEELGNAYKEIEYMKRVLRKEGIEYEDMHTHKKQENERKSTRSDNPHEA
Technique: protein-binding microarray
Molecule type: double-stranded DNA, one strand shown
Medium: in vitro
Concentration: 0.8 µM
Setting: whole 60-bp probe, no competitor
Direction: higher = stronger binding
Measurement: fluorescence intensity
Shared flanks, not repeated: … GTCTTGATTCGCTTGACGCTGCTG
CTATTTCTTTTCCTGCGCACGCCGATAAAGAAGTTC: 562 a.u.
GAAATCATGTCATTGAACGTGTTACGTCTATTATAG: 551 a.u.
CCTAACTACTATAAACACGTGATATAGCTTCGTACA: 11900 a.u.
CCTAACTACTATATCATCGTGGCATAGCTTCGTACA: 536 a.u.
GAATTATACGGTACACATGTGGAGAAACAATTTTAG: 640 a.u.
GAATCATCGGTGGCAAACGTGTTTACAGGACTATAG: 509 a.u.
GAAATGGATGCTGAACATGTGGAATACCAGTTTTAG: 587 a.u.
TGTACGAAGCTATTAGTCATGTGTATAGTAGTTAGG: 1240 a.u.

Series 2
Structure (SMILES): CN(C)c1ncnc(-c2ccc3nc(Nc4cc(CN5CCN(C(=O)CC(F)(F)F)CC5)ccn4)[nH]c3c2)c1Cl
Concentration: 1 µM
Measurement: remaining binding
PIK3CA (Homo sapiens, UniProt P42336, Q546K); cell-free assay, competition with immobilised ligand: 30%
WNK3 (Homo sapiens, UniProt Q9BYP7); cell-free assay, competition with immobilised ligand: 85%
EPHA8 (Homo sapiens, UniProt P29322); cell-free assay, competition with immobilised ligand: 100%
PIK3CA (Homo sapiens, UniProt P42336, E542K); cell-free assay, competition with immobilised ligand: 29%
CDK19 (Homo sapiens, UniProt Q9BWU1); competition binding: 75%
CDC42BPB (Homo sapiens, UniProt Q9Y5S2); cell-free assay, competition with immobilised ligand: 96%

Series 3
Target: Serine/threonine-protein kinase MRCK beta (CDC42BPB, Homo sapiens, UniProt Q9Y5S2)
Observed: enzyme activity
Action: inhibitor
Concentration: 0.5 µM
Reference: control
Measurement: remaining activity
Cn1c2ccccc2c2c3c(c4c5ccccc5n(CCC#N)c4c21)CNC3=O: 92.1%
Nc1ccc2ncnc(NCCc3ccc(Oc4ccccc4)cc3)c2c1: 105%
COc1cc2nccc(Oc3ccc(NC(=S)NC(=O)c4ccccc4C)cc3)c2cc1OC: 90.5%
COc1cc2ncnc(Nc3ccc(Oc4ccccc4)cc3)c2cc1OC: 106%
Cn1sc(=O)n(Cc2ccccc2)c1=O: 96.4%
O=C(Nc1cccc(Nc2cc(Nc3cccc(C(F)(F)F)c3)ncn2)c1)C1CC1: 97.4%
COc1ccc(OC)c2c(=S)c3ccccc3[nH]c12: 106%
OCC(O)CCON=C1C(c2c(O)[nH]c3ccccc23)=Nc2ccccc21 (centres unmarked): 96.6%
C#Cc1cccc(Nc2ncnc3cc(OCCOC)c(OCCOC)cc23)c1: 98.5%
Oc1ccc(-c2nc(-c3ccncc3)c(-c3ccc(F)cc3)[nH]2)cc1: 103%

Series 4
Target: Histone acetyltransferase KAT6A, both winged helices, GST fusion (KAT6A, Homo sapiens, UniProt Q92794, residues 1-181)
Technique: protein binding microarray
Molecule type: double-stranded DNA, one strand shown
Medium: in vitro
Concentration: not given
Setting: 8-mer, flanks averaged, mean of 2 arrays, mostly near background
Reference: not given
Direction: higher = stronger binding
Measurement: E-score
Target sequence (chain): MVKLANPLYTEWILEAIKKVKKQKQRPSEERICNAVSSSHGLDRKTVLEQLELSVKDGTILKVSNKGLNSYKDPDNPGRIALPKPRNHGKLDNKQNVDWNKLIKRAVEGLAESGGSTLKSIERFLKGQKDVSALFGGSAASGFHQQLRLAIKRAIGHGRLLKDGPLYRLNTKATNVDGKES
CGATGAAC: 0.134
AAGGTTCT: -0.143
CGTATACC: 0.00015
CCCAATAC: -0.184
CCCTCCAG: -0.0637
ATAGTGAA: -0.119
CCAGTAGG: -0.125
CGGTAGGC: 0.177

For quick reference, copied from above (series 3):
Cn1sc(=O)n(Cc2ccccc2)c1=O: 96.4%
COc1cc2ncnc(Nc3ccc(Oc4ccccc4)cc3)c2cc1OC: 106%
C#Cc1cccc(Nc2ncnc3cc(OCCOC)c(OCCOC)cc23)c1: 98.5%
